Assay results collected from several papers.
Every numbered part comes from another study and shows a few of its results, in no order.

Study 1 — technique: universal PBM; form: double-stranded DNA, one strand shown; medium: in vitro; concentration: not given; direction: higher = stronger binding
Target: Sal-like protein 4, full length isoform B (SALL4, Homo sapiens, UniProt Q9UJQ4-2, residues 1-616)
Setting: 8-mer, flanks averaged, mean of replicates
Residues (chain): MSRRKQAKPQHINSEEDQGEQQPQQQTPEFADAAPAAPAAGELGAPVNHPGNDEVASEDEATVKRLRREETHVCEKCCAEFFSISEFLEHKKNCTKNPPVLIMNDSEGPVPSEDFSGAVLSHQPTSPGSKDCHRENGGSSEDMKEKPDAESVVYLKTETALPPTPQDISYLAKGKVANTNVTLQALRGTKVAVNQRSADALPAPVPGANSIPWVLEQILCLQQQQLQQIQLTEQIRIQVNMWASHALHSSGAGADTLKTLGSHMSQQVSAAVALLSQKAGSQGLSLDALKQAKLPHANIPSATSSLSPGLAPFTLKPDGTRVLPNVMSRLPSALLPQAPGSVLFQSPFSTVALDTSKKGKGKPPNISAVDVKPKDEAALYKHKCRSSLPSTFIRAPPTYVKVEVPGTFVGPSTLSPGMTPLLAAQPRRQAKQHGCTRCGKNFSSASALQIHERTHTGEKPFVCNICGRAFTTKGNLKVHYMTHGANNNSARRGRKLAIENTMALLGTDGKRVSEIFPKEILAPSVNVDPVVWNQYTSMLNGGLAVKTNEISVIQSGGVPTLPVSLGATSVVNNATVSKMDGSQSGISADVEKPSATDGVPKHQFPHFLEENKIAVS
Strand | E-score
AATAGCAG | -0.018
GAATAAAA | 0.236
GTCTAGTA | 0.154
CGAGCACA | -0.00567
AAAGTCTG | 0.0391
AGCGTCAA | -0.0131

Study 2 — technique: protein binding microarray; form: double-stranded DNA, one strand shown; medium: in vitro; concentration: not given; baseline: not given; direction: higher = stronger binding
Target: Histone acetyltransferase KAT6A, winged helix 2, GST fusion (KAT6A, Homo sapiens, UniProt Q92794, residues 85-181)
Setting: 8-mer, flanks averaged, mean of 2 arrays, mostly near background
Residues (chain): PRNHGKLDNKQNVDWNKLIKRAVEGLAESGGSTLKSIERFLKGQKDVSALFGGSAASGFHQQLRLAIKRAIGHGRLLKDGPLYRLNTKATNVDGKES
Strand | E-score
ATGTTATA | -0.0437
CGGTAGGA | 0.0672
TAGGCTCA | -0.0968
AACTTTTA | 0.0767
AACGGAGC | -0.103

Study 3 — technique: aptamer microarray, sandwich; form: DNA with 2'F-ANA; medium: in vitro; concentration: 200 nM; with: Cy3 exosite-II aptamer, 400 nM; direction: higher = stronger binding; strand: GGTTGGTGTGGTTGG
Target: Prothrombin, mature alpha-thrombin (F2, Homo sapiens, UniProt P00734)
Setting: whole 15-mer aptamer, many near background
Modification | mean fluorescence intensity [a.u.]
2'F-ANA at 2 4 5 6 7 8 9 10 11 13 15 | 99.1
2'F-ANA at 1 5 6 7 8 9 10 11 | 49.6
2'F-ANA at 2 3 6 8 9 | 849
2'F-ANA at 3 7 9 11 13 14 15 | 591
2'F-ANA at 1 3 5 9 10 11 14 15 | 46.4

Other studies, line by line
Molecule | target | assay | test system | setting | scale | endpoint | result
PhoQ, residues 284 288 289 292 302 303 AGCYAI | PhoP, residues 12 14 15 18 19 LYHSL (Escherichia coli, UniProt P23836) | Sort-seq, measured: YFP reporter | E. coli | PhoQ-PhoP variant library, with: 10 µM Mg2+ | baseline: high Mg2+ state, higher = stronger signaling | fold induction | 11.3

Excerpt of the above (study 3):
Modification | mean fluorescence intensity [a.u.]
2'F-ANA at 3 7 9 11 13 14 15 | 591
2'F-ANA at 1 3 5 9 10 11 14 15 | 46.4
